Assay results collected from several papers.
Lines come from different studies, so protocols differ.
Technique: steady-state kinetics
B1: putA E1012A (Rhodobacter capsulatus, UniProt D5AN87); chain MTDLSALGPKAKFAPEAEVLQALVAQAALPQPQLDRIAARGADLVARIRAEAKPSLMEHFLAQYGLSTREGVALMCLAEAMLRVPDTATIDALIEDKIAPSDWGKHLGTAASSLVNASTWALMLTGKVLDDGAGGIAGTLRGAMRRLGEPVIRAAVGQAMREMGRQFVLGETIEKALERAEKREAEGYTFSYDMLGEAALTAADAERYRLAYAQAITAIGKAATRGSIAANPGISIKLSALHPRYEVAQEARVMAELVPVVRDLARAAARAGIALHIDAEEQDRLALSLRVMAAVIADPETAGWEGFGAVVQAYGKRAGAAIDALAAMARAAGRRINIRLVKGAYWDAEMKRAQVEGHPGFPLFTSKTGTDVAYICLAAKLFGLNDCIYPQFATHNAHTVAAVLEMAAGRPFEFQRLHGMGARLHDIVLRETGGRCRIYAPVGAHRDLLAYLVRRLLENGANSSFVNQIVNESVPPAEVAACPFAALPTARAPRGLLAPADLFGAGRVNAQGFDLSDPEVLARIEAARDVTLPDAAPIVAGPVSGTLRPVRNPATGAVVAQVTEADAATVALALDAAQVWSAPAATRAAVLCRAADLYEENFGPIFAALAQEAGKTLGDAVSELREAVDFLRYYAAEGAADTRPPRGAVVAISPWNFPLAIFTGQVAAALMAGNAVLAKPAEQTPIIAALAVRLLHQAGVPETALQLLPGDGPTVGAALTRDPRVAGVVFTGSTETAQIIARAMAAHLAPGTPLIAETGGLNAMVVDSTALPEQAVRDVVASAFRSAGQRCSALRCLYVQDDIAPHLIGMLKGAMEELVSGDPARLSTDVGPVIDAEAKAGIETYLAANKARILHRSTAPEGGHFVAPALLQVGGIADLEREIFGPVLHLATFAAEDLPAVIAAINARGYGLTFGLHSRIDARVETVAETIRAGNIYVNRNQIGAVVGSQPFGGEGLSGTGPKAGGPLYLNRFYAPEPVVAVGGWTEAATPILPEARETQLDEIFLPGPTGALNRLTRHQRGPILCLGPGAEAASAQAAAVVALGGQAVQASGAVSPKALETLTPLAGVLWWGAAEMGRAYAQALAVRPGPLVPLITAKPDLAHVAHERHLCVDTTAAGGNAALLAG
B2: sacB S173A (Priestia megaterium, UniProt D5DC07); chain KGNDSKDFNNSYGISHITRDNMVKIPQQQNSDQFKVPAFDESTIKNIASAKGKNASGNTIDLDVWDSWPLQNADGTVATYHGYQIVFALAGDPKDSNDTSVYLFYKKAGDKSIDSWKNAGRVFKDSDKFVPNDPHLKNQTQEWAGSGTLTKDGKVRLFYTDYSGKQYGKQTLTTAQVNMSQPNDNTLKVDGVEDYKSIFDGDGKIYQTVQQFIDEGGYDTGDNHTLRDPHYIEDNGHKYLVFEANTGTEDGYQGEDSLYNRAYYGGNNPFFQSEKKKLLEGSNKEKASLANGALGIIELNDDYTLKKVMKPLITSNTVTDEIERANIFKKDGKWYLFTDSRGSKMTIDGIGQDDVYMLGYVSNTLTGKYKPLNDTGLVLHMDLDPNDKTFTYSHFAVPQTKGDNVVITSYMTNRGFYEDNHSTFAPSFLVNIDGSKTSVVKDRVLEQGQLTVDED
B3: onr (Enterobacter cloacae, UniProt P71278); chain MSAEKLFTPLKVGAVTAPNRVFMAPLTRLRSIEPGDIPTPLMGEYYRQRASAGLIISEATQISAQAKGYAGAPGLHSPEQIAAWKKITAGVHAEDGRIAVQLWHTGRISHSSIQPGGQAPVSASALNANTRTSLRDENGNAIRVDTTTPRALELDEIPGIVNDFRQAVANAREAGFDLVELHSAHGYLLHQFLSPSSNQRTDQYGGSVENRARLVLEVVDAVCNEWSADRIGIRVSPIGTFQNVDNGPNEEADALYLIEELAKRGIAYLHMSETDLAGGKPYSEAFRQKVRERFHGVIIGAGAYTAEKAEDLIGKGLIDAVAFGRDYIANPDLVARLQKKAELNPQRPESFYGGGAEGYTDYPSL
B4: LYPLA2 (Homo sapiens, UniProt O95372); chain MCGNTMSVPLLTDAATVSGAERETAAVIFLHGLGDTGHSWADALSTIRLPHVKYICPHAPRIPVTLNMKMVMPSWFDLMGLSPDAPEDEAGIKKAAENIKALIEHEMKNGIPANRIVLGGFSQGGALSLYTALTCPHPLAGIVALSCWLPLHRAFPQAANGSAKDLAILQCHGELDPMVPVRFGALTAEKLRSVVTPARVQFKTYPGVMHSSCPQEMAAVKEFLEKLLPPV
B5: enzyme S146C (Schizosaccharomyces pombe, UniProt Q9Y7P0); chain MFTGLVEAIGVVKDVQGTIDNGFAMKIEAPQILDDCHTGDSIAVNGTCLTVTDFDRYHFTVGIAPESLRLTNLGQCKAGDPVNLERAVLSSTRMGGHFVQGHVDTVAEIVEKKQDGEAIDFTFRPRDPFVLKYIVYKGYIALDGTCLTITHVDDSTFSIMMISYTQSKVIMAKKNVGDLVNVEVDQIGKYTEKLVEAHIADWIKKTQA
B6: BaiA2 (Clostridium scindens, UniProt P19337); chain MNLVQDKVTIITGGTRGIGFAAAKIFIDNGAKVSIFGETQEEVDTALAQLKELYPEEEVLGFAPDLTSRDAVMAAVGQVAQKYGRLDVMINNAGITSNNVFSRVSEEEFKHIMDINVTGVFNGAWCAYQCMKDAKKGVIINTASVTGIFGSLSGVGYPASKASVIGLTHGLGREIIRKNIRVVGVAPGVVNTDMTNGNPPEIMEGYLKALPMKRMLEPEEIANVYLFLASDLASGITATTVSVDGAYRP
B7: PRP43 R159A (Saccharomyces cerevisiae, UniProt P53131); chain MGSKRRFSSEHPDPVETSIPEQAAEIAEELSKQHPLPSEEPLVHHDAGEFKGLQRHHTSAEEAQKLEDGKINPFTGREFTPKYVDILKIRRELPVHAQRDEFLKLYQNNQIMVFVGETGSGKTTQIPQFVLFDEMPHLENTQVACTQPRRVAAMSVAQAVAEEMDVKLGEEVGYSIRFENKTSNKTILKYMTDGMLLREAMEDHDLSRYSCIILDEAHERTLATDILMGLLKQVVKRRPDLKIIIMSATLDAEKFQRYFNDAPLLAVPGRTYPVELYYTPEFQRDYLDSAIRTVLQIHATEEAGDILLFLTGEDEIEDAVRKISLEGDQLVREEGCGPLSVYPLYGSLPPHQQQRIFEPAPESHNGRPGRKVVISTNIAETSLTIDGIVYVVDPGFSKQKVYNPRIRVESLLVSPISKASAQQRAGRAGRTRPGKCFRLYTEEAFQKELIEQSYPEILRSNLSSTVLELKKLGIDDLVHFDFMDPPAPETMMRALEELNYLACLDDEGNLTPLGRLASQFPLDPMLAVMLIGSFEFQCSQEILTIVAMLSVPNVFIRPTKDKKRADDAKNIFAHPDGDHITLLNVYHAFKSDEAYEYGIHKWCRDHYLNYRSLSAADNIRSQLERLMNRYNLELNTTDYESPKYFDNIRKALASGFFMQVAKKRSGAKGYITVKDNQDVLIHPSTVLGHDAEWVIYNEFVLTSKNYIRTVTSVRPEWLIEIAPAYYDLSNFQKGDVKLSLERIKEKVDRLNELKQGKNKKKSKHSKK
B8: enzyme (Pseudomonas putida, UniProt Q88P31); chain MAAISVEPCTFALFGALGDLALRKLFPALYQLDRANLLHPDTRLLALAREVGSAQEHLDSIEAHLRRHVPEADIEPAALGRFLARLNYQHLDFLQPEGYQALAEQLPGELPLIAYFATAAAVYGAICENLDKVGLAARTRVVLEKPIGHDLESSRRVNDAVARFFPESRVYRIDHYLGKETVQNLIALRFANSLFETQWNQNSISHVEITVAEKVGIEGRWGYFDKAGQLRDMIQNHLLQLLCLIAMDPPSELSADAIRDEKVKVLKALAPITGDGLSTSVVRGQYIAGYSEGKPVPGYLEEDNANAQSDTETFVALRADIRNWRWSGVPFYLRTGKRMPQKLSQIVIHFKETPHYIFAPEQRLQIGNKLIIRLQPDEGISLRVMTKEQGLDKGMQLRSGPLQLNFSDAWRSARIPDAYERLLLEVMRGNQNLFVRKDEIEYAWKWCDQLIAGWRNAGDAPKPYAAGSWGPMSSIALITRDGRAWYGDI
Chain of UniProt Q8C0L6 (whole entry, looked up): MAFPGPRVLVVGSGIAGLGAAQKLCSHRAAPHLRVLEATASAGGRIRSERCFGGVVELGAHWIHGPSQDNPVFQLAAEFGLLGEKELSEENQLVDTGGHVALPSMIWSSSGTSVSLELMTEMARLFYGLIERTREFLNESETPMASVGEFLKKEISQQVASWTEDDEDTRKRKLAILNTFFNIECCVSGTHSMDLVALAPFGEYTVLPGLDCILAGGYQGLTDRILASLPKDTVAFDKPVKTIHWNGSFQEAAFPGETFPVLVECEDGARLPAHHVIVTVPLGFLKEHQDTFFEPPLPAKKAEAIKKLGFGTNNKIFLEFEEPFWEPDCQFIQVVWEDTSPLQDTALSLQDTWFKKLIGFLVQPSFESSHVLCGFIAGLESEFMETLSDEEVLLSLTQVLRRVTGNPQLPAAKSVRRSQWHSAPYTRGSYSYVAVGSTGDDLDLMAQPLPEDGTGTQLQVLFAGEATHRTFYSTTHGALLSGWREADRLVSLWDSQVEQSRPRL
Chain of UniProt P38999 (whole entry, looked up): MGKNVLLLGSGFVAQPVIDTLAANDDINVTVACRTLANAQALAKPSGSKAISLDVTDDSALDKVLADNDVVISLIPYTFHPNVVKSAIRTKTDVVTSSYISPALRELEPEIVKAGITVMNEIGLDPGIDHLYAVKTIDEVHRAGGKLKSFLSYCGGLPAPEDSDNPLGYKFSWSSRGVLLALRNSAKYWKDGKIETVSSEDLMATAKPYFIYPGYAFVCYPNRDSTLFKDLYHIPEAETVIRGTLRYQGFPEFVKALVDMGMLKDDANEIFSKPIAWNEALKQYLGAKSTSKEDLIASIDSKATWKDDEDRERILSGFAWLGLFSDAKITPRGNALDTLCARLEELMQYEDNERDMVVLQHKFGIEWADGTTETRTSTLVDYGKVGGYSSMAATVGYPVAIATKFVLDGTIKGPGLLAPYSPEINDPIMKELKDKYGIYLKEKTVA
Chain of UniProt Q9UBT6 (whole entry, looked up): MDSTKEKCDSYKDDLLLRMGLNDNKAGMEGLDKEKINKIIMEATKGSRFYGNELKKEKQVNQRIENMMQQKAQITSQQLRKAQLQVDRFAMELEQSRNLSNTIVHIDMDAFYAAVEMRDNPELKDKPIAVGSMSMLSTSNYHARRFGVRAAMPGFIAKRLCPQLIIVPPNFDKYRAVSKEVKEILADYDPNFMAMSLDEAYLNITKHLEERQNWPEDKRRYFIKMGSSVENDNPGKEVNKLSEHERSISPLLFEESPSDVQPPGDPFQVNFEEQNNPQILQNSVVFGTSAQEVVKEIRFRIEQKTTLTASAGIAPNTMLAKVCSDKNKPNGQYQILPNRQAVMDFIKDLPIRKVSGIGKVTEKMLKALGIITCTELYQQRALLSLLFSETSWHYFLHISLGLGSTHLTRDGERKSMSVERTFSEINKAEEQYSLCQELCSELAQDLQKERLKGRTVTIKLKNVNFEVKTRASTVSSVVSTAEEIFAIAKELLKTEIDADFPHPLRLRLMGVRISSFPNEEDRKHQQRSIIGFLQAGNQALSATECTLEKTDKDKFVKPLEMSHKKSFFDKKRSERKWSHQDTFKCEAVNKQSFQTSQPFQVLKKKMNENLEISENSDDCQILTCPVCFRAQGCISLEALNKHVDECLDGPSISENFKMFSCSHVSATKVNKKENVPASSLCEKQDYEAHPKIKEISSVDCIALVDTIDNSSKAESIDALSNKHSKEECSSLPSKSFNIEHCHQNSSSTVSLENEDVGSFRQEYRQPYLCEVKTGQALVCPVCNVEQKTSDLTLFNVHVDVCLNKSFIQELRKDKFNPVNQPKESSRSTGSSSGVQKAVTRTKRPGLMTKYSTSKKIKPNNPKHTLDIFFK
Chain of UniProt O15327 (whole entry, looked up): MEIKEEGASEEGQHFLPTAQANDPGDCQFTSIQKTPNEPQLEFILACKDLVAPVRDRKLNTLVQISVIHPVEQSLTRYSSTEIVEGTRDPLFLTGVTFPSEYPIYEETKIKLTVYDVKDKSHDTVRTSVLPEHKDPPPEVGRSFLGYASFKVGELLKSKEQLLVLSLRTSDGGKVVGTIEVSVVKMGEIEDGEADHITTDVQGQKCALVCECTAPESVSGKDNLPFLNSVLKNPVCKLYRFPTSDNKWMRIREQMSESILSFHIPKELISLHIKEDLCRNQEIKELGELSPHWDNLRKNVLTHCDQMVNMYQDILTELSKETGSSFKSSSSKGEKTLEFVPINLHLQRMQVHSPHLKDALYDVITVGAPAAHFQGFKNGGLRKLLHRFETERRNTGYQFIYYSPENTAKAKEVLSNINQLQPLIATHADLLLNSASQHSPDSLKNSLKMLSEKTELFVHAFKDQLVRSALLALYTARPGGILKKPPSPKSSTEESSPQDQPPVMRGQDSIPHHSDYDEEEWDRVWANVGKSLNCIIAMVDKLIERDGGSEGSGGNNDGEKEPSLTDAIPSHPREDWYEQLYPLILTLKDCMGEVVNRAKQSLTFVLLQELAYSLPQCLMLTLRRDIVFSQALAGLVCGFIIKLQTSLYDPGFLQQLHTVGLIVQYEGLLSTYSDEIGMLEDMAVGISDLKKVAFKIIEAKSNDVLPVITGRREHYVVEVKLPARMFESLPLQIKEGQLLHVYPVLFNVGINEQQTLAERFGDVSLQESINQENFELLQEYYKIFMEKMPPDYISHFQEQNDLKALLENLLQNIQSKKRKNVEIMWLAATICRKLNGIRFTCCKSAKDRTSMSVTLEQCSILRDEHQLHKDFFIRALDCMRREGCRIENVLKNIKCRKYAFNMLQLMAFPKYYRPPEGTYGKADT
Chain of UniProt Q12043 (whole entry, looked up): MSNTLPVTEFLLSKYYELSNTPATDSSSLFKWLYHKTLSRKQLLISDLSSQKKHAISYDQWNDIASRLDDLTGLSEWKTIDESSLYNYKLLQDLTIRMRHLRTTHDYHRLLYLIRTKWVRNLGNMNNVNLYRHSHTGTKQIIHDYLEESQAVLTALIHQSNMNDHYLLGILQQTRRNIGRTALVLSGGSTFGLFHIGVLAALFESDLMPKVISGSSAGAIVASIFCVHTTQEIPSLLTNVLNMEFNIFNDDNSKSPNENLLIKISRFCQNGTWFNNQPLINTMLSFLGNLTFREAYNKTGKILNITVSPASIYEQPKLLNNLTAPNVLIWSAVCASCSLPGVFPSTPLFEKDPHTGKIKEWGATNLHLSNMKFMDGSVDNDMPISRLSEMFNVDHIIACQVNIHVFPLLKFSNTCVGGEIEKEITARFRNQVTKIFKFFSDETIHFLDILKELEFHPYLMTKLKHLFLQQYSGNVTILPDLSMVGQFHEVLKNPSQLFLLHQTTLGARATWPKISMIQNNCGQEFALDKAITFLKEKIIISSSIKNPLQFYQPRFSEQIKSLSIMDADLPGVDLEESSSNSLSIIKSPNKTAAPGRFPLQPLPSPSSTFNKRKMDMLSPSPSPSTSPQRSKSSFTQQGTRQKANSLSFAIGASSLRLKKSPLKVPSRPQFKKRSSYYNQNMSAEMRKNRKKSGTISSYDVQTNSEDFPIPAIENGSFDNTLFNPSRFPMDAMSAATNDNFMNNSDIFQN

Molecule | substrate | pH | temperature | setting | added | Km [µM]
B1 (putA E1012A) | O=C(O)[C@@H]1CCCN1 | pH 8 | 23 °C | – | – | 15300
Paox (Mus musculus, UniProt Q8C0L6) | CC(=O)NCCCNCCCCNCCCN | pH 10 | 30 °C | – | – | 210
B2 (sacB S173A) | OC[C@H]1O[C@@](CO)(O[C@H]2O[C@H](CO)[C@@H](O)[C@H](O)[C@H]2O)[C@@H](O)[C@@H]1O | pH 6.6 | – | – | – | 3900
POLK (Homo sapiens, UniProt Q9UBT6) | Nc1ncnc2c1ncn2[C@H]1C[C@H](O)[C@@H](COP(=O)(O)OP(=O)(O)OP(=O)(O)O)O1 | pH 7.5 | 23 °C | MgCl2 5 mM | 8-oxoG template | 1.7
B3 (onr) | CC(C)=CCC/C(C)=C/C=O | pH 7 | 25 °C | apparent, anaerobic | NADPH 100 µM | 26.7
B4 (LYPLA2) | CN(C)c1ccc(/N=N/c2ccc(C(=O)NCCCn3cc(CCCCCCCCCCCCCCCC(=O)OC[C@H](NC(=O)c4cc5ccc(O)cc5oc4=O)C(=O)N4CCOCC4)nn3)cc2)cc1 | pH 7.4 | 37 °C | – | – | 37.5
INPP4B (Homo sapiens, UniProt O15327) | O=[N+]([O-])c1ccc(OP(=O)(O)O)cc1 | pH 8 | 25 °C | – | pNPP 10-100 mM | 38000
TGL5 (Saccharomyces cerevisiae, UniProt Q12043) | CCCCCCCC/C=C\CCCCCCCC(=O)OC[C@@H](O)COP(=O)(O)O | pH 7.5 | 30 °C | – | oleoyl-CoA 14C | 18.7
Saccharopine reductase (Saccharomyces cerevisiae, UniProt P38999) | N[C@@H](CCC(=O)O)C(=O)O | pH 7 | 25 °C | – | NADPH, AASA | 28000
B5 (enzyme S146C) | Cc1nc2c(=O)[nH]c(=O)nc-2n(C[C@H](O)[C@H](O)[C@H](O)CO)c1C | pH 7.2 | 37 °C | apparent | – | 8.9
B6 (BaiA2) | C[C@H](CCC(=O)SCCNC(=O)CCNC(=O)[C@H](O)C(C)(C)COP(=O)(O)OP(=O)(O)OC[C@H]1O[C@@H](n2cnc3c(N)ncnc32)[C@H](O)[C@@H]1OP(=O)(O)O)[C@H]1CC[C@H]2[C@@H]3CC[C@@H]4C[C@H](O)CC[C@]4(C)[C@H]3CC[C@]12C | pH 8.7 | 37 °C | – | NAD+ | 18
enzyme (Streptomyces filamentosus, UniProt A0ABY4UVI6) | CSc1c(O)cc(-c2ccccn2)nc1C(=O)N[C@@H](CC(C)C)C(=O)O | pH 8 | 30 °C | – | – | 120
B7 (PRP43 R159A) | Nc1ccn([C@@H]2O[C@H](COP(=O)(O)OP(=O)(O)OP(=O)(O)O)[C@@H](O)[C@H]2O)c(=O)n1 | pH 8 | – | KCl 100 mM, without Pfa1 | polyA 0.2 mM, magnesium acetate 2.5 mM | 935
B8 (enzyme) | NC(=O)c1ccc[n+]([C@@H]2O[C@H](COP(=O)(O)OP(=O)(O)OC[C@H]3O[C@@H](n4cnc5c(N)ncnc54)[C@H](OP(=O)(O)O)[C@@H]3O)[C@@H](O)[C@H]2O)c1 | pH 8 | 30 °C | – | – | 14

Excerpt of the above:
Molecule | substrate | pH | temperature | setting | added | Km [µM]
POLK (Homo sapiens, UniProt Q9UBT6) | Nc1ncnc2c1ncn2[C@H]1C[C@H](O)[C@@H](COP(=O)(O)OP(=O)(O)OP(=O)(O)O)O1 | pH 7.5 | 23 °C | MgCl2 5 mM | 8-oxoG template | 1.7
TGL5 (Saccharomyces cerevisiae, UniProt Q12043) | CCCCCCCC/C=C\CCCCCCCC(=O)OC[C@@H](O)COP(=O)(O)O | pH 7.5 | 30 °C | – | oleoyl-CoA 14C | 18.7
